Measured values collected from several papers.
Numbered parts are unrelated; each lists some results of a single study. Values joined by “and” are separate records of one study, mostly repeats; a detail may differ.
Sequence of UniProt Q9UKT9 (whole entry, looked up): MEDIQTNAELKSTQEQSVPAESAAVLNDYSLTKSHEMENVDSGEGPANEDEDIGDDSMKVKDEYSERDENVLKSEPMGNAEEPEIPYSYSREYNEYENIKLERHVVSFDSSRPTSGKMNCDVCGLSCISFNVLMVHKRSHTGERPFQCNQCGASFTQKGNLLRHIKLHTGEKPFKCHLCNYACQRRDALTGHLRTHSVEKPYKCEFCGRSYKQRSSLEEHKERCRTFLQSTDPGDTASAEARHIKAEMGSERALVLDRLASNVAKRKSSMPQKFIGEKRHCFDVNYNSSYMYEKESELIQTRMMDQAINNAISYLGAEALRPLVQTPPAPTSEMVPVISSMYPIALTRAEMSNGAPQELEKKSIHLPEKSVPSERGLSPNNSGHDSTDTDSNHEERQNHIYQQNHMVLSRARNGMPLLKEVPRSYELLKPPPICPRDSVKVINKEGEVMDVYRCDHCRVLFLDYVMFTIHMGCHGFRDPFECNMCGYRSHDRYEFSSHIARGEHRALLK
Sequence of UniProt P37173 (whole entry, looked up): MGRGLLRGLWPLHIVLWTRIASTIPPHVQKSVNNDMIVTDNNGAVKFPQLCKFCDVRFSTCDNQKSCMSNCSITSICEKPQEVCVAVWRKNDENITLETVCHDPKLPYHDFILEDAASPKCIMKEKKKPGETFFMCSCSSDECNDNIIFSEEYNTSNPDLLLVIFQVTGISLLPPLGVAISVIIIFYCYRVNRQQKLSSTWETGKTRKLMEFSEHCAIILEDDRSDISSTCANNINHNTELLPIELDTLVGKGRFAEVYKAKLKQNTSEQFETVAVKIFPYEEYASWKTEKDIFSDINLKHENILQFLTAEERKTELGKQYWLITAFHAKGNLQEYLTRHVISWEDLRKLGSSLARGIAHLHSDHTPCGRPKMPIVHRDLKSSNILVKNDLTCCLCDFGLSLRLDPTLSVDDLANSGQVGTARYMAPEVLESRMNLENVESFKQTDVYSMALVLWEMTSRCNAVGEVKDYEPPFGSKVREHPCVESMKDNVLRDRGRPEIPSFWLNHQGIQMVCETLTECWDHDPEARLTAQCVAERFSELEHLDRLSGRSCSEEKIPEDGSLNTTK
Sequence of UniProt Q15418 (whole entry, looked up): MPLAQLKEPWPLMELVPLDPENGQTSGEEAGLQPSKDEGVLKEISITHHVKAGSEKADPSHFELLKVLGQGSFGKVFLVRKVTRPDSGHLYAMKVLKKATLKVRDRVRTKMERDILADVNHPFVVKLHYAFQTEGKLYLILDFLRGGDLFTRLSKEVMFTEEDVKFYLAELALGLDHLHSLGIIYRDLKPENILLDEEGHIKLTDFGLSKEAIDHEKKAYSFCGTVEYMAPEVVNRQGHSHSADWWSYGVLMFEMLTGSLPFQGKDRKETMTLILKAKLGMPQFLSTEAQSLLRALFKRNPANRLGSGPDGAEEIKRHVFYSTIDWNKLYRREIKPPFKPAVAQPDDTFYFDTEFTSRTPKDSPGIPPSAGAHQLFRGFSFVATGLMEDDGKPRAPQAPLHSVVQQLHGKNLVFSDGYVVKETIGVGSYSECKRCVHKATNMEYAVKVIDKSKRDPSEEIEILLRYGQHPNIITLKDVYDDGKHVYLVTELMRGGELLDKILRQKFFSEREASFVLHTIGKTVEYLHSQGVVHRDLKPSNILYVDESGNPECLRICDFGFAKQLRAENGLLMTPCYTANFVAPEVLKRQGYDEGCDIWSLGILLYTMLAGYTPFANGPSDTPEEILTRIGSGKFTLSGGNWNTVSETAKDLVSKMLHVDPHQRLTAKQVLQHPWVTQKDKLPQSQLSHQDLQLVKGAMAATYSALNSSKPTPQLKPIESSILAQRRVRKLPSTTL

Series 1 — effect on: thermal unfolding; method: differential scanning fluorimetry; concentration: 5.5 µM; reading: higher = more unfolded
Structure (SMILES): C[C@@H]1CN(c2ccc(-c3cc(C(=O)NCCOCCOCCOCCOCCNC(=O)/C=C/c4[nH]cc(C(=O)N[C@@H](CC(N)=O)c5ccc(F)c(Cl)c5)c4-c4ccc(Cl)cc4F)ccc3F)cc2NC(=O)c2c[nH]c(=O)cc2C(F)(F)F)C[C@H](C)N1C
WDR5: WD repeat-containing protein 5 (WDR5, Homo sapiens, UniProt P61964)
DCAF1: DDB1- and CUL4-associated factor 1 (DCAF1, Homo sapiens, UniProt Q9Y4B6)
Sequence of UniProt Q9Y4B6 (whole entry, looked up): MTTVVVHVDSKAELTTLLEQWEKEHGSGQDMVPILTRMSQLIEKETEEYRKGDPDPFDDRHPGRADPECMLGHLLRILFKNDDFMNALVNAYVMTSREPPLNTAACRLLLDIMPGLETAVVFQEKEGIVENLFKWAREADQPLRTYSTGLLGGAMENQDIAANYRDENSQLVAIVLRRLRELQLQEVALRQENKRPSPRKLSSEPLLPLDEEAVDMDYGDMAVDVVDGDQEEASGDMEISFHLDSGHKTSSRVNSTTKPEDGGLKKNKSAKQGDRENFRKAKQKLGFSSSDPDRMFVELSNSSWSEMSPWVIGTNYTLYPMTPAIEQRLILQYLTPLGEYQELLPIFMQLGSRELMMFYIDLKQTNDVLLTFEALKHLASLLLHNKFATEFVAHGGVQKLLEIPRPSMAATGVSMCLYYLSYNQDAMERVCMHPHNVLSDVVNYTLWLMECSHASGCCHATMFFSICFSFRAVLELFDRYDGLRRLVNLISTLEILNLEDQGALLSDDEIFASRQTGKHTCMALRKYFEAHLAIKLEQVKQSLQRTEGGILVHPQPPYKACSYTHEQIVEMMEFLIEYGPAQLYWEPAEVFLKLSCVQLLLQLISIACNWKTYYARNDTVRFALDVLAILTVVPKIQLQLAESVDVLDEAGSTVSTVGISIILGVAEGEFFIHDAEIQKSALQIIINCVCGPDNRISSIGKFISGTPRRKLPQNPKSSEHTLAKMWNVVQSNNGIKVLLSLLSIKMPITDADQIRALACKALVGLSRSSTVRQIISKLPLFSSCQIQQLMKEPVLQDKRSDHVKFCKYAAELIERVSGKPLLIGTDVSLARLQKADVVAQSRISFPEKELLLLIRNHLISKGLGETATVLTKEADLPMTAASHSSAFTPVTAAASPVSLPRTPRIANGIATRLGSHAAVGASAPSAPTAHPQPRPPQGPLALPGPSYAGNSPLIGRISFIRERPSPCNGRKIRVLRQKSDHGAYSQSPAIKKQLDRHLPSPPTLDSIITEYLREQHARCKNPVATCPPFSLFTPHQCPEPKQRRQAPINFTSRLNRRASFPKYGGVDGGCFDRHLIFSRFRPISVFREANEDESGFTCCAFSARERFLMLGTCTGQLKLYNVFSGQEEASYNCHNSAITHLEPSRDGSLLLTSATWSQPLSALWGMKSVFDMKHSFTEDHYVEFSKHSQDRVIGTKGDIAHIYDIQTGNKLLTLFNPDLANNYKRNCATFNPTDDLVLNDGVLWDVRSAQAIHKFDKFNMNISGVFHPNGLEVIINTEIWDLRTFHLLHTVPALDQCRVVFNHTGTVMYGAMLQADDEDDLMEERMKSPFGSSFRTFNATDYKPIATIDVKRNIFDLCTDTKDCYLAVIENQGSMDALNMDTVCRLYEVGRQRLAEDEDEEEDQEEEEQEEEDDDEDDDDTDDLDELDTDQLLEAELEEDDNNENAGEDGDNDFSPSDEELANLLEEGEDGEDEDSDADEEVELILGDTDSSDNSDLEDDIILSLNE
It gave 12800 a.u. for “SYPRO Orange fluorescence” (WDR5; 28.6 °C).
For WDR5; 26.6 °C: “SYPRO Orange fluorescence” read 13000 a.u.
The “SYPRO Orange fluorescence” was 56300 a.u. (DCAF1; 63.81 °C).
For DCAF1; 34.8 °C: “SYPRO Orange fluorescence” read 10200 a.u.
DCAF1; 35.8 °C — “SYPRO Orange fluorescence”: 10400 a.u.
It gave 14100 a.u. for “SYPRO Orange fluorescence” (DCAF1; 47.4 °C).
It gave 17500 a.u. for “SYPRO Orange fluorescence” (DCAF1; 52.61 °C).
For WDR5; 94.61 °C: “SYPRO Orange fluorescence” read 45600 a.u.

Series 2 — concentration: 1 µM
SMILES: CC[C@@]1(c2cccc(C(F)(F)F)c2)C2=C(Nc3n[nH]cc31)[C@H](F)C(C)(C)CC2=O (single isomer, unassigned)
It gave 92% for remaining binding (Ribosomal protein S6 kinase alpha-1, N-terminal kinase domain (RPS6KA1, Homo sapiens, UniProt Q15418); kinase binding, KINOMEscan; baseline: DMSO control).
TGFBR2 (Homo sapiens, UniProt P37173); binding, competition with immobilised ligand — remaining binding: 100%.
It gave 100% for remaining binding (CDKL3 (Homo sapiens, UniProt Q8IVW4); binding, competition with immobilised ligand).
It gave 100% for remaining binding (STK3 (Homo sapiens, UniProt Q13188); kinase binding, KINOMEscan; baseline: DMSO control).
RET (Homo sapiens, UniProt P07949); kinase binding, KINOMEscan; baseline: DMSO control — remaining binding: 86%.
TTK (Homo sapiens, UniProt P33981); binding, competition with immobilised ligand — remaining binding: 100%.
For FES (Homo sapiens, UniProt P07332); binding, competition with immobilised ligand: remaining binding read 99%.
It gave 92% for remaining binding (CDK13 (Homo sapiens, UniProt Q14004); binding, competition with immobilised ligand).

Other studies, line by line
CDK12 with cyclin K: Cyclin-dependent kinase 12, with cyclin K (CDK12, Homo sapiens, UniProt Q9NYV4)
Sequence of UniProt Q9NYV4 (whole entry, looked up): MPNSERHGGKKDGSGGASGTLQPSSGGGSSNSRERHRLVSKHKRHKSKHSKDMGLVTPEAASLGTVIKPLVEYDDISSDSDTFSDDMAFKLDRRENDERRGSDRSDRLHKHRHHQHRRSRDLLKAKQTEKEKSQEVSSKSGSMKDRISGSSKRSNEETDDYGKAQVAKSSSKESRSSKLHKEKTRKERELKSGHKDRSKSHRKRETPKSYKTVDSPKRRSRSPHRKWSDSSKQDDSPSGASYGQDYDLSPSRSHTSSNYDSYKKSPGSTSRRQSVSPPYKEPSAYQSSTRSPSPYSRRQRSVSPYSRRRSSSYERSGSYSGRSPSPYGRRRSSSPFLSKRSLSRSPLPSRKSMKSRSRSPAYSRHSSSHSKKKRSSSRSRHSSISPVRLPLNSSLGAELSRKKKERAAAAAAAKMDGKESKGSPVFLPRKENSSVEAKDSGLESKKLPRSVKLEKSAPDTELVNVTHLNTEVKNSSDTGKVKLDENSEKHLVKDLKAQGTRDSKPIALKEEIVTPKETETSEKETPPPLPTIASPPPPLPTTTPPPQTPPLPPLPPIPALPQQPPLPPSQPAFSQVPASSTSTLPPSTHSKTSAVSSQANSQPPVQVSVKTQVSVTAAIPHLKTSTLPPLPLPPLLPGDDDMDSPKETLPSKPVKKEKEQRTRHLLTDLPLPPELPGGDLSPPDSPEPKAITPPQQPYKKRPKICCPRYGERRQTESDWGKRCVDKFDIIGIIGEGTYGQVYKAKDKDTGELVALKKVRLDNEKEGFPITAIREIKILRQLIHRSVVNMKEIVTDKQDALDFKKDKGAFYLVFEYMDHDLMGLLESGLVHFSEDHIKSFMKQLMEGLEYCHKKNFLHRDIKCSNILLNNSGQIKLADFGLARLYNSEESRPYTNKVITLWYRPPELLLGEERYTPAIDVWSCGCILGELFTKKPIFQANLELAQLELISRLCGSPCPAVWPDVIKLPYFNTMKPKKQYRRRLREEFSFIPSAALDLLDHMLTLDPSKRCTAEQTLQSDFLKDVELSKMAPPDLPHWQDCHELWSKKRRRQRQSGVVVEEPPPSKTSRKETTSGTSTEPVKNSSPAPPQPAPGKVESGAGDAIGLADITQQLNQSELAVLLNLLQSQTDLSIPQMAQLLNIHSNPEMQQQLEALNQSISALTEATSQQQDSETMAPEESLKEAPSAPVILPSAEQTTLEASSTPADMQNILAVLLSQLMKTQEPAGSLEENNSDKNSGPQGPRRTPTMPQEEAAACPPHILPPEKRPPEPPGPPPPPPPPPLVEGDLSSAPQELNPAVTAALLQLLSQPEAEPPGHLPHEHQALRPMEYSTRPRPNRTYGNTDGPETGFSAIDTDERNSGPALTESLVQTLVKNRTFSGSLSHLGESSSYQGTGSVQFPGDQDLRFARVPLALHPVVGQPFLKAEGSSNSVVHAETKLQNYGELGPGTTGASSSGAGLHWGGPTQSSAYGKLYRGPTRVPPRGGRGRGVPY
For `CCn1cnc2c(NCc3nc4cc(Cl)c(Cl)cc4[nH]3)nc(N3CCN(S(C)(=O)=O)CC3)nc21`, the inhibition was -5.5% (CDK12 with cyclin K; kinase activity, inhibitor, ADP-Glo; 0.0009 µM).
For `Cn1cc(-c2cccc(CN3CCC4(CC3)COc3c4ccc4c3CN([C@@H]3CCC(=O)NC3=O)C4=O)c2)cn1`, the remaining protein was 95.2% and 96.8% (Zinc finger protein Aiolos (Homo sapiens, UniProt Q9UKT9); degrader, HiBiT; HEK293; 123.5 nM).
With `CCn1cnc2c(NCc3nc4cc(Cl)c(Cl)cc4[nH]3)nc(N3CCN(C(=O)[C@H](C)NC(C)=O)CC3)nc21` the inhibition was -20.8% (CDK12 with cyclin K; kinase activity, inhibitor, ADP-Glo; 0.0009 µM).
For `CCn1cnc2c(NCc3nc4cc(Cl)c(Cl)cc4[nH]3)nc(N3CCN(C(=O)CNC(C)=O)CC3)nc21`, the inhibition was -5% (CDK12 with cyclin K; kinase activity, inhibitor, ADP-Glo; 0.0009 µM).
`CCn1cnc2c(NCc3nc4cc(F)c(F)cc4[nH]3)nc(N3CCn4ncnc4C3)nc21` gave a degradation of 40.3% (MDA-MB-231; degrader, western blot, item: cyclin K; 5 nM, 24 h).
